Published values of several laboratories.
Each line is one published result; not all experiments were run side by side. Numbers after ± are the reported error.

Compound = CCCC[C@H](NC(C)=O)C(=O)N[C@H]1CCC(=O)NC[C@@H](C(=O)N[C@@H](Cc2c[nH]c3ccccc23)C(N)=O)NC(=O)[C@H](CCCNC(=N)N)NC(=O)[C@@H](Cc2ccccc2)NC(=O)[C@H](Cc2c[nH]cn2)NC1=O; test system = CD Sprague Dawley rat, female, plasma; setting = subcutaneous, 1.0 mg/kg daily, day 1; half-life = 0.749 h
Compound = O=C(/C=C/c1ccc(O)c(O)c1)O[C@H](Cc1ccc(O)c(O)c1)C(=O)O; assay = UPLC-MS/MS; test system = Wistar rat, microcirculation dysfunction model, plasma; setting = oral, 100 mg/kg Salvia miltiorrhiza stem-leaf extract FS; half-life = 2.1 ± 1.73 h
Compound = CCN(CC)Cc1cc(Nc2ccnc3cc(Cl)ccc23)ccc1O; test system = rat, Wistar, male, plasma; setting = oral, 60 mg/kg, with: myricetin 5 mg/kg iv; half-life = 2.49 ± 0.85 h
Compound = CC(C)=CCC[C@](C)(O[C@@H]1O[C@H](CO)[C@@H](O)[C@H](O)[C@H]1O)[C@H]1CC[C@]2(C)[C@@H]1[C@H](O)C[C@@H]1[C@@]3(C)CC[C@H](O[C@@H]4O[C@H](CO)[C@@H](O)[C@H](O)[C@H]4O[C@@H]4O[C@H](CO)[C@@H](O)[C@H](O)[C@H]4O)C(C)(C)[C@@H]3CC[C@]12C; test system = Sprague-Dawley rat, plasma; setting = oral, 100 mg/kg of parent ginsenoside, control group, no prebiotic; half-life = 11.9 ± 7.54 h
Compound = Cc1nc2cccc(OCC(C)(C)C(=O)NC(C)C)c2c(N)c1C(=O)O; test system = female Sprague-Dawley rat, plasma; setting = oral gavage, 100 mg/kg, day 7; half-life = 0.89 h
Compound = C[C@@H]1O[C@@H](OC[C@H]2O[C@@H](Oc3c(-c4ccc(O)c(O)c4)oc4cc(O)cc(O)c4c3=O)[C@H](O)[C@@H](O)[C@@H]2O)[C@H](O)[C@H](O)[C@H]1O; assay = UPLC-MS/MS; test system = Wistar rat, microcirculation dysfunction model, plasma; setting = oral, 100 mg/kg Salvia miltiorrhiza stem-leaf extract FT; half-life = 16.9 ± 24.8 h
Compound = CC(C)=CCC[C@](C)(O[C@@H]1O[C@H](CO)[C@@H](O)[C@H](O)[C@H]1O)[C@H]1CC[C@]2(C)[C@@H]1[C@H](O)C[C@@H]1[C@@]3(C)CC[C@H](O[C@@H]4O[C@H](CO)[C@@H](O)[C@H](O)[C@H]4O[C@@H]4O[C@H](CO)[C@@H](O)[C@H](O)[C@H]4O)C(C)(C)[C@@H]3CC[C@]12C; test system = Sprague Dawley rat, male, plasma; setting = oral, 42 mg/kg, white ginseng extract; half-life = 17.7 ± 4.9 h
Compound = Cn1nnc2c(C(N)=O)ncn2c1=O; assay = microdialysis; test system = male athymic rat, intracranial U87 tumour ECF; setting = oral, 50 mg/kg, cediranib 12 h before, with: cediranib 6 mg/kg oral; half-life = 1.1 h
Compound = CCN1CCN(c2ccc(Nc3cc(N(C)C(=O)Nc4c(Cl)c(OC)cc(OC)c4Cl)ncn3)cc2)CC1; assay = LC-MS/MS; test system = juvenile male Crl:WI(Han) rats, plasma; setting = oral gavage, 0.3 mg/kg/day, postnatal day 17; half-life = 4.59 h
Compound = O=C(CCCN1CCCN(c2ccc(Cl)cc2)CC1)c1ccc(F)cc1; test system = male Sprague-Dawley rats, plasma; setting = intravenous, 1.7 mg/kg, with: HAL 0.7 mg/kg plus BCT 0.1 mg/kg; half-life = 0.467 ± 0.143 h
Compound = COc1ccc(/C=C\c2cc(OC)c(OC)c(OC)c2)cc1OP(=O)(O)O; test system = Sprague-Dawley rat male, plasma; setting = intravenous, 28 mg/kg; half-life = 0.97 ± 0.37 h
Compound = O=C(O)/C=C/c1ccc(O)c(O)c1; assay = UPLC-MS/MS; test system = Wistar rat, microcirculation dysfunction model, plasma; setting = oral, 100 mg/kg Salvia miltiorrhiza stem-leaf extract FT; half-life = 15.9 ± 24.9 h
Compound = CC(C)=CCC[C@](C)(O[C@@H]1O[C@H](CO)[C@@H](O)[C@H](O)[C@H]1O)[C@H]1CC[C@]2(C)[C@@H]1[C@H](O)C[C@@H]1[C@@]3(C)CC[C@H](O)C(C)(C)[C@@H]3[C@@H](O[C@@H]3O[C@H](CO)[C@@H](O)[C@H](O)[C@H]3O[C@@H]3O[C@@H](C)[C@H](O)[C@@H](O)[C@H]3O)C[C@]12C; test system = Sprague Dawley rat, male, plasma; setting = oral, 45 mg/kg, white ginseng extract; half-life = 6.5 ± 1.2 h
Compound = CCOc1cc([C@@H](CS(C)(=O)=O)N2C(=O)c3cccc(NC(C)=O)c3C2=O)ccc1O[C@@H]1O[C@H](C(=O)O)[C@@H](O)[C@H](O)[C@H]1O; test system = moderate renal impairment patients, plasma; setting = oral, 30 mg of apremilast; half-life = 23.7 h
Compound = CCc1oc2ccc(O)cc2c1C(=O)c1cc(Br)c(O)c(Br)c1; test system = Sprague-Dawley rats, male, whole blood; setting = intravenous, 0.5 mg/kg; half-life = 1.5 ± 0.5 h
Compound = O=C(/C=C/c1ccc(O)c2c1[C@H](C(=O)O)[C@@H](c1ccc(O)c(O)c1)O2)O[C@H](Cc1ccc(O)c(O)c1)C(=O)O; assay = UPLC-MS/MS; test system = Wistar rat, microcirculation dysfunction model, plasma; setting = oral, 100 mg/kg Salvia miltiorrhiza stem-leaf extract FS; half-life = 3.3 ± 3.49 h
Compound = S=c1sc2ccccc2n1CCCCN1CCN(C2CCCCC2)CC1; test system = male Sprague-Dawley rat, plasma; setting = intravenous, 5 mg/kg; half-life = 1 h
Compound = C=CC(=O)Nc1cc(Nc2nccc(-c3cn(C)c4ccccc34)n2)c(OC)cc1N(C)CCN(C)C; test system = Sprague-Dawley rat, male, plasma; setting = oral, 10 mg/kg; half-life = 4.08 ± 0.98 h
Compound = CC(C)=CCC[C@](C)(O[C@@H]1O[C@H](CO)[C@@H](O)[C@H](O)[C@H]1O)[C@H]1CC[C@]2(C)[C@@H]1[C@H](O)C[C@@H]1[C@@]3(C)CC[C@H](O[C@@H]4O[C@H](CO)[C@@H](O)[C@H](O)[C@H]4O)C(C)(C)[C@@H]3CC[C@]12C; test system = Sprague-Dawley rat, plasma; setting = oral, 100 mg/kg of parent ginsenoside, control group, no prebiotic; half-life = 3.06 ± 0.29 h
Compound = CC(C)=CCC[C@](C)(O[C@@H]1O[C@H](CO[C@@H]2O[C@H](CO)[C@@H](O)[C@H](O)[C@H]2O)[C@@H](O)[C@H](O)[C@H]1O)[C@H]1CC[C@]2(C)[C@@H]1[C@H](O)C[C@@H]1[C@@]3(C)CC[C@H](O[C@@H]4O[C@H](CO)[C@@H](O)[C@H](O)[C@H]4O[C@@H]4O[C@H](CO)[C@@H](O)[C@H](O)[C@H]4O)C(C)(C)[C@@H]3CC[C@]12C; test system = Sprague Dawley rat, male, plasma; setting = oral, 86 mg/kg, white ginseng extract; half-life = 18.5 ± 3.8 h
Compound = O=C(/C=C/c1ccc(O)c(O)c1/C=C/c1ccc(O)c(O)c1)O[C@H](Cc1ccc(O)c(O)c1)C(=O)O; assay = UPLC-MS/MS; test system = Wistar rat, microcirculation dysfunction model, plasma; setting = oral, 100 mg/kg Salvia miltiorrhiza stem-leaf extract FS; half-life = 18.7 ± 22.2 h
Compound = CC(C)=CCC[C@](C)(O[C@@H]1O[C@H](CO)[C@@H](O)[C@H](O)[C@H]1O)[C@H]1CC[C@]2(C)[C@@H]1[C@H](O)C[C@@H]1[C@@]3(C)CC[C@H](O)C(C)(C)[C@@H]3[C@@H](O[C@@H]3O[C@H](CO)[C@@H](O)[C@H](O)[C@H]3O)C[C@]12C; test system = Sprague Dawley rats, male, plasma; setting = oral, 25 mg/kg, aqueous solution, with: co-dosed pure ginsenoside mixture; half-life = 7.5 ± 4.2 h
Compound = CN(CCOc1ccc(CC2SC(=O)NC2=O)cc1)c1ccccn1 (stereo not drawn); test system = Sprague-Dawley rat, female, plasma; setting = intraperitoneal, 5 mg/kg of dasatinib, with: dasatinib co-dosed; half-life = 1.6 ± 0.38 h
Compound = CCc1oc2ccc(F)cc2c1C(=O)c1cc(Br)c(O)c(Br)c1; test system = Sprague-Dawley rats, male, whole blood; setting = intravenous, 0.5 mg/kg; half-life = 1.2 ± 0.1 h
Compound = Nc1nc2c(ccc3ccccc32)s1; test system = rat Sprague-Dawley, male, plasma; setting = intravenous, 10 mg/kg, three-compartment model; half-life = 12 h
Compound = CCc1oc2cc(OC)ccc2c1C(=O)c1cc(Br)c(O)c(Br)c1; test system = Sprague-Dawley rats, male, whole blood; setting = intravenous, 0.5 mg/kg; half-life = 1.4 ± 0.6 h
Compound = CCC[C@@]1(CCc2ccccc2)CC(O)=C([C@H](CC)c2cccc(NS(=O)(=O)c3ccc(C(F)(F)F)cn3)c2)C(=O)O1; test system = Sprague Dawley rat, male, plasma; setting = oral, 5 mg/kg, lipid-free formulation; half-life = 3.57 ± 0.73 h

Excerpt of the above:
Compound = O=C(/C=C/c1ccc(O)c(O)c1/C=C/c1ccc(O)c(O)c1)O[C@H](Cc1ccc(O)c(O)c1)C(=O)O; assay = UPLC-MS/MS; test system = Wistar rat, microcirculation dysfunction model, plasma; setting = oral, 100 mg/kg Salvia miltiorrhiza stem-leaf extract FS; half-life = 18.7 ± 22.2 h
Compound = CC(C)=CCC[C@](C)(O[C@@H]1O[C@H](CO)[C@@H](O)[C@H](O)[C@H]1O)[C@H]1CC[C@]2(C)[C@@H]1[C@H](O)C[C@@H]1[C@@]3(C)CC[C@H](O)C(C)(C)[C@@H]3[C@@H](O[C@@H]3O[C@H](CO)[C@@H](O)[C@H](O)[C@H]3O)C[C@]12C; test system = Sprague Dawley rats, male, plasma; setting = oral, 25 mg/kg, aqueous solution, with: co-dosed pure ginsenoside mixture; half-life = 7.5 ± 4.2 h
Compound = CN(CCOc1ccc(CC2SC(=O)NC2=O)cc1)c1ccccn1 (stereo not drawn); test system = Sprague-Dawley rat, female, plasma; setting = intraperitoneal, 5 mg/kg of dasatinib, with: dasatinib co-dosed; half-life = 1.6 ± 0.38 h
